# Published values of several laboratories.
# Protocols differ between the studies behind these lines. Several values in a cell are separate wells, animals, samples, runs or records. Numbers after ± are the reported error.
# Observed: enzyme activity
# GBA1 R534H: Lysosomal acid glucosylceramidase (GBA1, Homo sapiens, UniProt P04062, R534H)
# UniProt P04062, sequence (whole entry, unmodified, looked up): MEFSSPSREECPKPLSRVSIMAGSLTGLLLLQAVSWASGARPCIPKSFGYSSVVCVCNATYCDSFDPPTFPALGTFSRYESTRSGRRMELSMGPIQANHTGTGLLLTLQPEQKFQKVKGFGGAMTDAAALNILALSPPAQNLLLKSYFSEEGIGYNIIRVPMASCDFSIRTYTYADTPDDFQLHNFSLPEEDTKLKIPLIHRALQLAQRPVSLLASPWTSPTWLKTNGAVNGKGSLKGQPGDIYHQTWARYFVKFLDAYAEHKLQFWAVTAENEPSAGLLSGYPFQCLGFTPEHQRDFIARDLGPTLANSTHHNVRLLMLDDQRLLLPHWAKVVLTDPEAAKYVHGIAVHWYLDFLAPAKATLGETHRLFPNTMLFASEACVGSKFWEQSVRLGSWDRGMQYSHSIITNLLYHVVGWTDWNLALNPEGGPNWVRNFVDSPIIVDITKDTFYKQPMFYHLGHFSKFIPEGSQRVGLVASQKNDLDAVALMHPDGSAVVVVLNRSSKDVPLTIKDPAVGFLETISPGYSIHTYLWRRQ
# GBA1: Lysosomal acid glucosylceramidase (GBA1, Homo sapiens, UniProt P04062)
Structure (SMILES),target,assay,conditions,measurement,result
CCC(=O)[C@@H]1[C@H]2[C@H](O)[C@@H](O)[C@H](O)[C@@H](CO)[C@@H]12,GBA1 R534H,inhibitor,pH 5.2,IC50,> 150 µM
OC[C@H]1c2[nH]cnc2[C@H](O)[C@@H](O)[C@@H]1O,GBA1 R534H,inhibitor,pH 6.8,Ki,~3.9 µM and 3.9 µM
CCCCCCCCNP(=O)(NCCCCCCCC)O[C@@H]1O[C@H](CO)[C@@H](O)[C@H](O)[C@H]1F,GBA1,irreversible inhibitor,"pH 5.5, 37 °C, together with: 2,4-dinitrophenyl beta-D-glucopyranoside",Ki,8.2 µM
COc1ccc(C2=[N+]3C(=C(CCCCc4cn(C[C@@H]5[C@@H](O)[C@H](O)[C@@H](O)[C@@H]6O[C@H]56)nn4)c4ccc(-c5ccc(OC)cc5)n4[B-]3(F)F)C=C2)cc1,GBA1 R534H,inhibitor,"pH 5.2, together with: 4MU-β-D-Glc substrate",IC50,0.00194 ± 8e-05 µM
OC[C@@H]1[C@@H](O)[C@H](O)[C@@H](O)CN1CCCCCOCC1CCCO1 (stereo partly shown),GBA1 R534H,inhibitor,"recombinant Cerezyme, together with: 4MU-β-D-glucopyranoside",Ki,122 µM
OC[C@@H]1[C@@H](O)[C@H](O)[C@@H](O)[C@H]2O[C@@H]12,GBA1 R534H,irreversible inhibitor,"pH 5.2, 37 °C, together with: 2,4-DNP-β-Glc",Ki,> 500 µM
CCCCCCCCCCCCNP(=O)(Oc1ccccc1)O[C@@H]1O[C@H](CO)[C@@H](O)[C@H](O)[C@H]1F (mixture of isomers),GBA1,irreversible inhibitor,"pH 5.5, 37 °C, together with: 2,4-dinitrophenyl beta-D-glucopyranoside",Ki,22.2 µM
CC(C)(C)COCCCCCN1C[C@H](O)[C@@H](O)[C@H](O)[C@H]1CO,GBA1 R534H,inhibitor,"recombinant Cerezyme, together with: 4MU-β-D-glucopyranoside",Ki,3.8 µM
OC[C@@H]1[C@@H](O)[C@H](O)[C@@H](O)c2nccn21,GBA1 R534H,inhibitor,pH 6.8,Ki,0.07 µM
OC[C@@H]1[C@@H](O)[C@H](O)[C@@H](O)CN1CCCCCOCC1CCOC1 (stereo partly shown),GBA1 R534H,inhibitor,"recombinant Cerezyme, together with: 4MU-β-D-glucopyranoside",Ki,92 µM
CC1=CC(C)=[N+]2C1=C(CCCCc1cn(C[C@H]3O[C@@H](O/C(=N\c4ccccc4)C(F)(F)F)[C@H](F)[C@@H](O)[C@@H]3O)nn1)c1c(C)cc(C)n1[B-]2(F)F,GBA1 R534H,inhibitor,"pH 5.2, together with: 4MU-β-D-Glc substrate",IC50,5.46 ± 0.13 µM
CCCCCCCCOP(=O)(Cc1ccccc1)O[C@@H]1O[C@H](CO)[C@@H](O)[C@H](O)[C@H]1F (stereo partly shown),GBA1,irreversible inhibitor,"pH 5.5, 37 °C, together with: 2,4-dinitrophenyl beta-D-glucopyranoside",Ki,101 µM
CC(C)COCCCCCN1C[C@H](O)[C@@H](O)[C@H](O)[C@@H]1CO,GBA1 R534H,inhibitor,"recombinant Cerezyme, together with: 4MU-β-D-glucopyranoside",Ki,1220 µM

# Excerpt of the above:
Structure (SMILES),target,assay,conditions,measurement,result
CC(C)COCCCCCN1C[C@H](O)[C@@H](O)[C@H](O)[C@@H]1CO,GBA1 R534H,inhibitor,"recombinant Cerezyme, together with: 4MU-β-D-glucopyranoside",Ki,1220 µM
CCCCCCCCOP(=O)(Cc1ccccc1)O[C@@H]1O[C@H](CO)[C@@H](O)[C@H](O)[C@H]1F (stereo partly shown),GBA1,irreversible inhibitor,"pH 5.5, 37 °C, together with: 2,4-dinitrophenyl beta-D-glucopyranoside",Ki,101 µM
